# Measurements pooled from the literature.
# Values joined by “and” are separate records of one study, mostly repeats; a detail may differ. Numbers after ± are the reported error.
# Aryl hydrocarbon receptor: Aryl hydrocarbon receptor (Danio rerio, UniProt Q9YGV3)
# ABL1 F317I: Tyrosine-protein kinase ABL1 (ABL1, Homo sapiens, UniProt P00519, F317I)
# Chain of UniProt P00519 (whole entry, unmodified, looked up): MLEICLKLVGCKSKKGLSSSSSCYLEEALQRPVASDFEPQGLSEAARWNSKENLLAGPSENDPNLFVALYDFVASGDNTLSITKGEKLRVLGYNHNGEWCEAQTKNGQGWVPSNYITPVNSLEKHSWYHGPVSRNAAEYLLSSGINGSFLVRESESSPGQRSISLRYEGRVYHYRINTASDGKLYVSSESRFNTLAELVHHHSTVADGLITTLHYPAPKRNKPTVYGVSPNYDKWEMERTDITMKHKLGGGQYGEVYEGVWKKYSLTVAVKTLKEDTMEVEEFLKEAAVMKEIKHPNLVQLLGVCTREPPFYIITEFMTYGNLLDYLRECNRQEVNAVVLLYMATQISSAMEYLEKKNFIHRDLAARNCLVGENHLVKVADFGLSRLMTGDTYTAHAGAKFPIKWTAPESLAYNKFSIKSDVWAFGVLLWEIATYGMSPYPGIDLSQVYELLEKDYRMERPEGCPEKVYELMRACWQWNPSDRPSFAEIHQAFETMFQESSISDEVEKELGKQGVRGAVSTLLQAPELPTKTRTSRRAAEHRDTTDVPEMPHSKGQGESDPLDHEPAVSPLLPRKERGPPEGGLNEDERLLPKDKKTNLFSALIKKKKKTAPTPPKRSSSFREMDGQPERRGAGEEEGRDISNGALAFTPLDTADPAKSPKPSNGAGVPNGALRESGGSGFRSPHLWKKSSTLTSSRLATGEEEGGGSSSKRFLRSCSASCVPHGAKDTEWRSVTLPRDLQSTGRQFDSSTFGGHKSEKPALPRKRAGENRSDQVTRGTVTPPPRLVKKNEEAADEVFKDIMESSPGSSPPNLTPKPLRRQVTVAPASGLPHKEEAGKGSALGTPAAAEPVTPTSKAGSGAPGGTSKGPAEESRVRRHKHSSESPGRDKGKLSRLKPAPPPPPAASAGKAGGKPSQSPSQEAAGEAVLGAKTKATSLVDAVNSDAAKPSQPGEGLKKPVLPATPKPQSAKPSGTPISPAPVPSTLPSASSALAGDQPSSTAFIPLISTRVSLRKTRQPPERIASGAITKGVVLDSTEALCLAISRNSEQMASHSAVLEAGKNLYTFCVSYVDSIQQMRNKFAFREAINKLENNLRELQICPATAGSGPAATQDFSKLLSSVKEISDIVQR
# T1: DNA aptamer; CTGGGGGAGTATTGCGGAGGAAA
# Chain of UniProt Q16774 (whole entry, looked up): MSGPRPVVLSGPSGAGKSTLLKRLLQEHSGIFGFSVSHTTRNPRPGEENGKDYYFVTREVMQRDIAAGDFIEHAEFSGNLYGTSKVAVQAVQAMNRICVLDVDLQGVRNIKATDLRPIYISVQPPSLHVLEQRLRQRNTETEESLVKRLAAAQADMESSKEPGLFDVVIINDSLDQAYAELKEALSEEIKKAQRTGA
# Chain of UniProt Q13133 (whole entry, looked up): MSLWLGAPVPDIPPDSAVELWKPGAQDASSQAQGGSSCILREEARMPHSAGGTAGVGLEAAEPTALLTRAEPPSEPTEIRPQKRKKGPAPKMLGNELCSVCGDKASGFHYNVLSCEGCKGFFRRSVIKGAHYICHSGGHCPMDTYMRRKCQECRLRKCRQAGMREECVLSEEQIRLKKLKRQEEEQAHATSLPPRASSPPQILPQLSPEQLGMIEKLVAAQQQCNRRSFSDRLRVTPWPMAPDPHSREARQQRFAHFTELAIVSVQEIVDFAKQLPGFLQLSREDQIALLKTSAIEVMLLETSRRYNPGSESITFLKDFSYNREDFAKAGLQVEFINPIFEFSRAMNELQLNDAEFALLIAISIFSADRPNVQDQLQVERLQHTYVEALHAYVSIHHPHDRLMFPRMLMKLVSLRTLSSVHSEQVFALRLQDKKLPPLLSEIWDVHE
# Chain of UniProt Q01105 (whole entry, unmodified, looked up): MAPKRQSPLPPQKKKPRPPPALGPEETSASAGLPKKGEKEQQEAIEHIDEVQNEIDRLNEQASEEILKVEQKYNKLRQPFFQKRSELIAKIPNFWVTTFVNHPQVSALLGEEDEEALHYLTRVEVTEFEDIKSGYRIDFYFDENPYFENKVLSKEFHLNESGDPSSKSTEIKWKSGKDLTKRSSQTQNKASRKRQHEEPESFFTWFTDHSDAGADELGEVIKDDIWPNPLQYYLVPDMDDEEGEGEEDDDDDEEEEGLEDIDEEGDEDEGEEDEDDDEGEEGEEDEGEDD
# Chain of UniProt Q13258 (whole entry, unmodified, looked up): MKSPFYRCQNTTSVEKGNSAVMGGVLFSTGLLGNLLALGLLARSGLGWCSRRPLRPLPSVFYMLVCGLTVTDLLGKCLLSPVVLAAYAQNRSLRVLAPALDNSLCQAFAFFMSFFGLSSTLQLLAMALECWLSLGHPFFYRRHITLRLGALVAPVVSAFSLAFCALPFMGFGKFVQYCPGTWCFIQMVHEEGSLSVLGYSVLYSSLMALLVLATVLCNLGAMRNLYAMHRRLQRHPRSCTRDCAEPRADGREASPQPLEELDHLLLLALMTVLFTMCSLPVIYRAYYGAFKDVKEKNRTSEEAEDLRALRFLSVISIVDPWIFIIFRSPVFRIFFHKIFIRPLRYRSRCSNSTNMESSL
# Chain of UniProt P62813 (whole entry, looked up): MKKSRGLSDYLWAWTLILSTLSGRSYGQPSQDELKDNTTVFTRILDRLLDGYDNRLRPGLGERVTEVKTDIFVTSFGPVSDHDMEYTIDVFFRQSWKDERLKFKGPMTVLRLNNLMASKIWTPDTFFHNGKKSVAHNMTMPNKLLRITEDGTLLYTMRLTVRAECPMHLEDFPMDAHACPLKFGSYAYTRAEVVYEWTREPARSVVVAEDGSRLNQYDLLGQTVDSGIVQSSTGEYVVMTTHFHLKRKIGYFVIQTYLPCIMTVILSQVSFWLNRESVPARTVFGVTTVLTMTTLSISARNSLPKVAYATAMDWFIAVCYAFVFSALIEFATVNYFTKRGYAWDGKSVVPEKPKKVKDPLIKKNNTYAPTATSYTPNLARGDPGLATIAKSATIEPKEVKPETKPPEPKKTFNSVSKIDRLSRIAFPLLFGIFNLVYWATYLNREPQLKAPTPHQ
# Chain of UniProt P60891 (whole entry, looked up): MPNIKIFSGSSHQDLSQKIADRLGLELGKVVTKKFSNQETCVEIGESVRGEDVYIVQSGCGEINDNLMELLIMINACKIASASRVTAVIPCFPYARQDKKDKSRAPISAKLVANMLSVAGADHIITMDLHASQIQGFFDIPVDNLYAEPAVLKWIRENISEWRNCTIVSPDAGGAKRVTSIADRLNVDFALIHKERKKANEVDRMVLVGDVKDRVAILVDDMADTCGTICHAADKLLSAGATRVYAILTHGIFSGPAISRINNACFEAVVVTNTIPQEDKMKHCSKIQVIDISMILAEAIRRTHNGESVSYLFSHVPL
# Chain of UniProt P11388 (whole entry, looked up): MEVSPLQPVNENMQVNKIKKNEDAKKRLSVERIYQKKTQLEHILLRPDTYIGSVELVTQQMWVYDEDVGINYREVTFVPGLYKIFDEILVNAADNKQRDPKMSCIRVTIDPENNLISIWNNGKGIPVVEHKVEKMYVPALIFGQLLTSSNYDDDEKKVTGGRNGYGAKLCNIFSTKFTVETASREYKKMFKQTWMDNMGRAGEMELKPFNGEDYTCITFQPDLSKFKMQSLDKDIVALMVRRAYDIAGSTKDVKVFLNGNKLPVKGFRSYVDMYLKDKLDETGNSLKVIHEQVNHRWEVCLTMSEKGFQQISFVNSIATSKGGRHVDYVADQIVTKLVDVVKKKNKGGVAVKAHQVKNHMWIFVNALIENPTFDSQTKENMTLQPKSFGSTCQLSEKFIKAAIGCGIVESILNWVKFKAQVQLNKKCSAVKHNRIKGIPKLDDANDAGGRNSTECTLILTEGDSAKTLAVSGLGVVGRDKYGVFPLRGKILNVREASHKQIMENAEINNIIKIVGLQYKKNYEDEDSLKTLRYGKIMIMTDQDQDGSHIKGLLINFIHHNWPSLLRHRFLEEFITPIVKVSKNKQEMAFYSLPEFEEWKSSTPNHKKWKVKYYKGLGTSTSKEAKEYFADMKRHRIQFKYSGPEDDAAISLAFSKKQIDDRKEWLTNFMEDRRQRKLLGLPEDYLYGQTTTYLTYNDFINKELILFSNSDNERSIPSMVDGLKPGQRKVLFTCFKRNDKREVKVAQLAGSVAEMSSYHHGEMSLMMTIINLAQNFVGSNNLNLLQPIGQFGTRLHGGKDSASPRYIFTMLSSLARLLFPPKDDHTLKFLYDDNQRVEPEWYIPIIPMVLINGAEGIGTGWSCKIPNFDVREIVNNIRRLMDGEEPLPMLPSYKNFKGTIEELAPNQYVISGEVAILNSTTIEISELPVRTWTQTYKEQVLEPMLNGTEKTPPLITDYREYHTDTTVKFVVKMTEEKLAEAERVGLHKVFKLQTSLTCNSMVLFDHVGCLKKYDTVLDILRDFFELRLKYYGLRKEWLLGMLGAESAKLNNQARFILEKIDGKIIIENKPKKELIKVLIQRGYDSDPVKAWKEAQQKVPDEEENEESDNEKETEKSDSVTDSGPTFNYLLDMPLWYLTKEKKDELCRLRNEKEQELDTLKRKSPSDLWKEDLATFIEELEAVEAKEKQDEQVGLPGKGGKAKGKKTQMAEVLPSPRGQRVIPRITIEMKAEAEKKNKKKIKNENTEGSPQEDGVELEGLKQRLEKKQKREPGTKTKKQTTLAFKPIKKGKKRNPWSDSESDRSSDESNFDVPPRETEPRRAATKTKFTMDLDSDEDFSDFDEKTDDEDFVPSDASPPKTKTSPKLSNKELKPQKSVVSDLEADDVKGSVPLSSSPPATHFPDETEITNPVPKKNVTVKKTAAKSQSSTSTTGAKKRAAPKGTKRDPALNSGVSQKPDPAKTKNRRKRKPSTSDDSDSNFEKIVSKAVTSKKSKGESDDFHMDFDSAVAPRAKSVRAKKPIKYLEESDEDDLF
# Chain of UniProt P0AC13 (whole entry, looked up): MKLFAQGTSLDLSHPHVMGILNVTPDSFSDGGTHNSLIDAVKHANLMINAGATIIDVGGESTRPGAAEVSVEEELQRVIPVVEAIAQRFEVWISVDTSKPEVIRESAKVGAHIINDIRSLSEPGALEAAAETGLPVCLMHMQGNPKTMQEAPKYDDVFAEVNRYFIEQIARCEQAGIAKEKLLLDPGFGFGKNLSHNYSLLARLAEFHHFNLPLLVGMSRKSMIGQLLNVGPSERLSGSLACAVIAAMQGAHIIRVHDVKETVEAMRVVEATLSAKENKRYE
SMILES,target,test,system,conditions,scale,quantity,value
COc1cc(-c2cncc3c2CN(C)Cc2cc(N4CCNCC4)ccc2-3)cc(OC)c1OC,"NEK9 (Homo sapiens, UniProt Q8TD19)",kinase activity,,"1 µM, human enzyme, together with: ATP 10 µM",reference: DMSO control,remaining activity,103%
CCCCNc1c(C(=O)OCC)c(C)nc2c1cnn2CC.Cl,"GABA-A receptor; alpha-1/beta-2/gamma-2 (Rattus norvegicus, UniProt P18508+P62813+P63138)","membrane potential, agonist, QP-DHM fluorescence",HEK293 expressing GABAA,,reference: GABA,maximal response,43%
Cc1cccc2c1ccc1cc(C(C)C)ccc12,Aryl hydrocarbon receptor,"reporter gene, agonist, luciferase reporter",ZF-4,41.15 µM,reference: vehicle control,fold change,1.28
O=c1nc(SCc2cc(F)cc(C(F)(F)F)c2)nc(SCc2ccc3nc(Cl)ccc3c2)[nH]1,"TOP2A (Homo sapiens, UniProt P11388)",DNA relaxation,,"7.8 µM, replicate 2",,relaxed DNA,99.6%
CCCCc1nc2c(s1)c(N)nc1ccccc12,"TLR8 (Homo sapiens, UniProt Q9NR97)","reporter gene, agonist, NF-κB reporter",HEK-Blue TLR8,,,EC50,inactive
N[C@H](COP(=O)(O)O)Cc1c[nH]cn1,Gamma1,"substrate, coupled phosphate release",,,,Km,69 ± 10 µM
CCOC(=O)C(C)c1n[nH]c2nc(N)[nH]c(=O)c2c1=O (stereo not shown),"folP (Bacteria, UniProt P0AC13)",CETSA HiBiT,"Escherichia coli, whole cells",,,melting temperature,55.5 °C
Cn1c2c(c3ccc(Cl)c(Cl)c31)C(C#N)C(C)(C)NC2=O (stereo not shown),"RPS6KA2 (Homo sapiens, UniProt Q15349)",thermal shift,,"10 µM, 2 µM protein",higher = stronger binding,ΔTm,1 °C
O=C(O)c1ccc(Nc2ncc3c(n2)-c2ccc(Cl)cc2C(c2c(F)cccc2F)=NC3)cc1,Met(h),kinase activity,,1 µM,,remaining activity,140%
CC[C@@H](C)[C@@H](NC(=O)[C@@H](Cc1ccc(O)cc1)NC(=O)[C@H]1CCCN1C(=O)[C@@H](CCCNC(=N)N)NC(=O)[C@H](N)Cc1c[nH]cn1)C(=O)N[C@H](C)C(=O)N[C@H](Cc1c[nH]cn1)C(=O)N[C@H](CCCNC(=N)N)C(=O)N[C@@H](C(=O)N[C@H](Cc1ccc(O)cc1)C(=O)N[C@H](CO)C(=O)N[C@H](Cc1ccccc1)C(N)=O)C(C)C,"Transferrin receptor protein 1 (Tfrc, Mus musculus, UniProt Q62351)",flow cytometry,RAW264.7,"24 h, pH 6, replicate 2, unit not given",reference: 0 h,surface TFRC expression,0.986
Nc1ncnc2c1ncn2[C@@H]1O[C@H](COP(=O)(O)OP(=O)(O)OP(=O)(O)O)[C@@H](O)[C@H]1O,"T1, DNA aptamer",amperometry,,"fit, pseudo-first order kinetic, apparent sensor",,Kd,315 µM
C=CC(=O)N1CCC(COCC(=O)N2CCN(c3nc(-c4cnc(N)nc4C(F)F)nc(N4CCOC[C@@H]4C)n3)CC2)CC1,"PRKAA2 (Homo sapiens, UniProt P54646)",KINOMEscan,,1 µM,,remaining binding,100%
CCCCC[C@H](O)/C=C/[C@H]1C(=O)C[C@H](O)[C@@H]1C/C=C\CCCC(=O)O,"PTGDR (Homo sapiens, UniProt Q13258, D72N)",agonist,,0.01953 µM,,activation,64.3%
CCCCCCCCCCCCC/C=C/[C@@H](O)[C@H](CO)NC(=O)CCCCCCCCCCCCCCCCCCC,"Protein SET (SET, Homo sapiens, UniProt Q01105, Y135C)","lipid binding, GFP pull-down LC-MS/MS",A549 overexpressing GFP-tagged protein,,reference: eluate plus flow-through,lipid fraction bound,39.8%
N#Cc1ccc(C[C@@H](NC(=O)c2cc3cc([N+](=O)[O-])ccc3[nH]2)C(=O)N2CCc3ccccc32)cc1,"FPR2 (Homo sapiens, UniProt P25090)",cell-based,,concentration not given,,activity,inactive
[Cl-].[K+],"GUK1 (Homo sapiens, UniProt Q16774)","enzyme activity, NADH-coupled",,30 mM,,reaction velocity,0.0522 µM/s and 0.0456 µM/s and 0.0519 µM/s
NCCCS(=O)(=O)O,"SLC6A6 (Homo sapiens, UniProt P31641, G62A)","binding, microscale thermophoresis",,"125 µM, room temperature, together with: 50 nM labelled protein",higher = more binding,normalised MST signal,-0.0218
Nc1nnc(-c2ccccc2O)cc1N1CCN(Cc2ccc(OCCOCCNc3cccc4c3C(=O)N(C3CCC(=O)NC3=O)C4=O)c(F)c2)CC1 (stereo not shown),"SMARCA2 (Homo sapiens, UniProt P51531)",immunohistochemistry,"mouse, NCI-H1568 xenograft, tumour",dose not given,reference: vehicle,reduction in positive cells,51%
COC(=O)c1cn(C)c2ccc(-c3cccnc3)cc12,"NR1H3 (Homo sapiens, UniProt Q13133)","reporter gene, Gal4 hybrid reporter",,10 µM,reference: vehicle,activation,1.04 fold
O=C(COP(=O)(O)O)[C@@H](O)[C@H](O)[C@H](O)COP(=O)(O)O,"PRPS1 (Homo sapiens, UniProt P60891)",thermal proteome profiling,HepG2 cell lysate,"concentration not given, 57 over 37 °C, mean",reference: compound over control,thermal stability ratio,2.46
C1=C/COCc2cc(ccc2OCCN2CCCC2)Nc2nccc(n2)-c2cccc(c2)COC/1,ABL1 F317I,,,0.1 µM,reference: DMSO control,remaining binding,79%
CC[C@H](C)[C@@H]1NC(=O)[C@H](C)NC(=O)[C@H]([C@@H](C)CC)NC(=O)[C@H](CCC(N)=O)NC(=O)[C@H](C)NC(=O)[C@H](CCCNC(=N)N)NC(=O)[C@H](C(C)C)NC(=O)[C@H](CC(C)C)NC(=O)[C@H](CCC(=O)O)NC(=O)[C@H](CCCNC(=N)N)NC(=O)CNC(=O)[C@@H](NC(=O)[C@H](CC(C)C)NC(=O)[C@H](CCCCN)NC(=O)[C@@H](NC(=O)[C@@H](NC(=O)[C@H](CCC(=O)O)NC(=O)[C@H](CCC(=O)O)NC(=O)[C@H](CCSC)NC(=O)[C@H](Cc2c[nH]c3ccccc23)NC(=O)[C@H](CO)NC(=O)[C@@H](N)CC(=O)O)C(C)C)[C@@H](C)CC)CSSC[C@@H]2NC(=O)[C@@H](NC(=O)[C@H](CCCCN)NC(=O)[C@H](CC(N)=O)NC(=O)[C@H](C)NC(=O)[C@H](CC(C)C)NC(=O)[C@H](C)NC(=O)[C@H](CO)NC(=O)[C@H](Cc3ccc(O)cc3)NC(=O)[C@H](CC(C)C)NC(=O)[C@H](CCC(N)=O)NC(=O)c3ccc(-c4c5ccc(=[N+](C)C)cc-5oc5cc(N(C)C)ccc45)c(C(=O)[O-])c3)CSSC[C@H](NC(=O)CNC(=O)[C@H](C(C)C)NC(=O)[C@H](Cc3c[nH]cn3)NC2=O)C(=O)N[C@@H]([C@@H](C)O)C(=O)N[C@@H](CCCCN)C(=O)N[C@@H](CCCNC(=N)N)C(=O)N[C@@H](CO)C(=O)N[C@@H](CC(C)C)C(=O)N[C@@H](C)C(=O)N[C@@H](CCCNC(=N)N)C(=O)N[C@@H](Cc2ccccc2)C(=O)N[C@H](C(=O)O)CSSC[C@@H](C(=O)NCC(=O)N[C@@H](CCSC)C(=O)N[C@@H](CO)C(=O)N[C@H](C(=O)N[C@@H](Cc2c[nH]c3ccccc23)C(=O)N[C@@H](CO)C(=O)O)[C@@H](C)O)NC1=O,"Relaxin receptor 1 (RXFP1, Homo sapiens, UniProt Q9HBX9)","binding, NanoBRET",,"concentration not given, together with: relaxin 100 nM",,fast dissociation fraction,17.7%
Nc1cccc2c1CN(C1CCC(=O)NC1=O)C2=O (stereo not shown),"Sal-like protein 4 (SALL4, Homo sapiens, UniProt Q9UJQ4)",degrader,C33A,,,Dmax,43 ± 2%
CCCCCCCCCCCCC/C=C/[C@@H](O)[C@H](CO)NC(=O)CCCCCCCCCCCCCCC,"Protein SET (SET, Homo sapiens, UniProt Q01105)","lipid binding, GFP pull-down LC-MS/MS",A549 overexpressing GFP-tagged protein,,reference: eluate plus flow-through,lipid fraction bound,2.7%
O=C(c1ccc(Nc2ncc(Cl)c(-c3cc4ccccc4s3)n2)cc1)N1CCC(N2CCCC2)CC1,"Protein kinase 6 (Plasmodium falciparum, UniProt Q8IDW1)","binding, KinaseSeeker split luciferase",,,,ligand efficiency,0.3
NC/C(=C\F)COc1cccc(Cn2c(=S)[nH]c(=O)c3[nH]cnc32)c1,"Myeloperoxidase (MPO, Homo sapiens, UniProt P05164)","H2O2 consumption, inhibitor, H2O2 electrode",,"0.028 µM, 0.3 s",,H2O2 concentration,-0.176 µM
COc1ccnn2ncc(-c3ccnc(N(C)C)n3)c12,ABL1 F317I,KINOMEscan,,1 µM,reference: control,remaining binding,98%
CCCCC[S+]([O-])c1n[nH]c(N)n1 (stereo not shown),"Huntingtin (HTT, Homo sapiens, UniProt P42858)","binding, affinity selection mass spectrometry",,,reference: other proteins in batch,log fold enrichment,-0.0585
CO[C@H]1O[C@H](COS(=O)(=O)O)[C@@H](O[C@@H]2O[C@@H](C(=O)O)[C@@H](O[C@H]3O[C@H](COS(=O)(=O)O)[C@@H](O[C@@H]4O[C@H](C(=O)O)[C@@H](O[C@H]5O[C@H](COS(=O)(=O)O)[C@@H](O)[C@H](O)[C@H]5NS(=O)(=O)O)[C@H](O)[C@H]4O)[C@H](OS(=O)(=O)O)[C@H]3NS(=O)(=O)O)[C@H](O)[C@H]2OS(=O)(=O)O)[C@H](O)[C@H]1NS(=O)(=O)O,"Beta-2-glycoprotein 1, domain V (APOH, Homo sapiens, UniProt P02749, V266L)",isothermal titration calorimetry,,together with: 50 mM NaCl,reference: total free energy,salt-independent binding energy share,52%
Cc1ccc2c(ccc3ccccc32)c1,"AHR (Homo sapiens, UniProt P35869)","reporter gene, agonist, yeast LacZ reporter",Saccharomyces cerevisiae,,,maximum response,199 LacZ units
c1ccc2c(c1)-c1cccc3c1c-2cc1ccccc13,Aryl hydrocarbon receptor,"reporter gene, agonist, luciferase reporter",ZF-4,123.5 µM,reference: vehicle control,fold change,8.72
CN(C)c1ncc(F)c(-c2cnn3ncccc23)n1,"ABL1 (Homo sapiens, UniProt P00519, F317L)",KINOMEscan,,1 µM,reference: control,remaining binding,65% and 100%
O=C1C=CC(=O)c2c1ccc1ccccc21,Aryl hydrocarbon receptor,"reporter gene, agonist, luciferase reporter",ZF-4,1.524 µM,reference: vehicle control,fold change,1.51
O=C1CCC(N2C(=O)c3cccc(NCC(=O)OCCCCc4cn(CCCCCCN5CCc6c(c7ccccc7n6Cc6ccc(C(=O)NO)cc6)C5)nn4)c3C2=O)C(=O)N1 (stereo not shown),"HDAC6 (Homo sapiens, UniProt Q9UBN7)","degrader, western blot",MM1.S,"1 µM, 24 h",,degradation,68%

# A few entries again:
SMILES,target,test,system,conditions,scale,quantity,value
[Cl-].[K+],"GUK1 (Homo sapiens, UniProt Q16774)","enzyme activity, NADH-coupled",,30 mM,,reaction velocity,0.0522 µM/s and 0.0456 µM/s and 0.0519 µM/s
NCCCS(=O)(=O)O,"SLC6A6 (Homo sapiens, UniProt P31641, G62A)","binding, microscale thermophoresis",,"125 µM, room temperature, together with: 50 nM labelled protein",higher = more binding,normalised MST signal,-0.0218
